Assay results pooled from the literature.
Protocols differ between the studies behind these lines. ± marks the error that the study gave.

SMILES | cell line | test | setting | how to read | quantity | value
C=CC(=O)N1[C@@H](c2ccc3c(c2)OCO3)c2[nH]c3ccccc3c2C[C@H]1C(=O)NC | rat DRG neurons |  | 1.111 µM, 48 h, together with: vincristine 40 nM |  | mean neuron degeneration | 70.9%
CCn1cc(-c2cc(Cn3ccnc3)cc3c2CCN([C@H](c2cc(OC)ccn2)C2CC2)C3=O)c(C(F)(F)F)n1 | MIA PaCa-2 | cell growth | 120 h |  | EC50 | 8.49 µM
O=C(O)CCc1ccc(O)c(O)c1 | Caco-2/THP-1 co-culture |  | concentration not given, together with: LPS 200 ng/mL |  | kynurenine level | 114 ± 2.7 % change
CC(C)=CC(=O)O | THP-1 | pyroptotic LDH release | 2 µM, 40 min, together with: LPS then nigericin |  | inhibition | -20.3%
O=C(/C=C/C=C/C=C/C1CCCCC1)NC1=C[C@@](O)(/C=C/C=C/C=C/C(=O)NC2=C(O)CCC2=O)[C@@H]2O[C@@H]2C1=O | OCUM1 | cell growth, CellTiter-Glo | 78 h |  | GI50 | > 30 µM
Cn1cc(-c2ccc(-c3cncc(Cl)c3N3CCC4(CCNC4=O)CC3)cc2)cn1 | COLO 205 | gene expression, microarray, item: NDUFA4L2 mRNA | concentration not given, 6 h | reference: untreated cells | log2 fold change | 3.28
Nc1cccc(C(=O)O)c1 | THP-1 | pyroptotic LDH release | 2 µM, 40 min, together with: LPS then nigericin |  | inhibition | 6.96%
O=C(O)CCc1ccc(O)cc1 | Caco-2/THP-1 co-culture | TEER | 0.25 µg/mL, together with: LPS 250 ng/mL | reference: control | transepithelial electrical resistance | 75.3 ± 8.2%
CCN(CC)Cc1ccc2cc(COC(=O)Nc3ccc(C(=O)NO)cc3)ccc2c1 | HEK293T ATF4-FLuc reporter | ATF4 reporter gene, activator, luciferase reporter |  |  | EC50 | 0.48 µM
COc1cnc2cccc(N3CCc4c(cc(Cn5ccnc5C)cc4-c4cn(C)nc4C(F)(F)F)C3=O)c2c1 | MDST8 | cell growth, inhibitor | 120 h |  | EC50 | > 30 µM
CC(C)(C)c1ccc(C(O)CCCN2CCC(C(O)(c3ccccc3)c3ccccc3)CC2)cc1 (stereo not shown) | THP-1 | pyroptotic LDH release | 2 µM, 40 min, together with: LPS then nigericin |  | inhibition | 3.89%
CCn1cc(-c2cc(Cn3ccoc3=N)cc3c2CCN([C@@H](C)c2cc(OC)ccn2)C3=O)c(C(F)(F)F)n1 | OV7 | cell growth, inhibitor | 120 h |  | EC50 | 0.181 µM
COc1ccc2c(C)cc(=O)oc2c1 | THP-1 | pyroptotic LDH release | 2 µM, 40 min, together with: LPS then nigericin |  | inhibition | 10.8%

Some of these lines once more:
SMILES | cell line | test | setting | how to read | quantity | value
CCN(CC)Cc1ccc2cc(COC(=O)Nc3ccc(C(=O)NO)cc3)ccc2c1 | HEK293T ATF4-FLuc reporter | ATF4 reporter gene, activator, luciferase reporter |  |  | EC50 | 0.48 µM
